Published values from different studies.
Each line is one published result; not all experiments were run side by side. ± marks the error that the study gave.
Organism: Trypanosoma cruzi

COc1cc(O)c(-c2cc(-c3c(C)cc(O)c4c(OC)ccc(-c5c(O)cc(OC)c6c5C[C@@H](C)N(C)[C@@H]6C)c34)c(O)c3c(OC)cc(C)cc23)c2c1[C@@H](C)N(C)[C@H](C)C2  IC50 (Tulahuen C4, amastigotes): 15.1 µM
C=C1C(=O)O[C@@H]2C[C@H](C)[C@@H]3C[C@H](O[Si](C)(C)C(C)C)[C@H](O[Si](C)(C)C(C)C)[C@@]3(C)C[C@H]12  IC50 (parasite growth, thymidine uptake; epimastigote): > 107 µM
NC(COc1ccccc1)COc1ccccc1  IC50 (parasite growth; L929, TULAHUEN; intracellular, amastigote): 100 µM
Cc1nc(C(=O)N2CCC[C@H]2C(=O)N[C@@H](CCC(=O)O)C(=O)N[C@@H](CC(C)C)C(=O)NC(C)(C)C(=O)N[C@@H](CC(C)C)C(=O)N[C@@H](CC(C)C)C(=O)NC(C)(C)C(=O)NC(C)(C)C(=O)NCCC(=O)NC2(CN(C)C)CCC2)co1  IC50 (beta-galactosidase; L6, Tulahuen C2C4): > 2 µM
COc1ccc(OC(=O)/C=C/C#N)cc1  IC50 (parasite growth, resazurin; mouse Macrophage; 24 h, intracellular, amastigote): 92.3 µM
CS(=O)(=O)N(Cc1cnc[nH]1)c1ccc(-c2nc3ccccc3s2)cc1  IC50 (parasite growth, resazurin; 48 h, epimastigote): 5.98 µM
CC(C)(C)c1ccc(OC(=O)/C=C/C#N)cc1  IC50 (parasite growth, resazurin; mouse Macrophage; 24 h, intracellular, amastigote): 23.1 µM
COc1cc(/C=C/C(=O)N2CCN(c3ccccc3)CC2)ccc1O  IC50 (parasite growth, resazurin; 24 h, trypomastigote): > 150 µM
COc1cc(O)c2c(O)c(C(C)=O)c(C)cc2c1  IC50 (parasite growth; 72 h, epimastigote): > 50 µM
N#C/C=C/C(=O)Oc1ccc(Br)cc1  IC50 (parasite growth, resazurin; 72 h, epimastigote): 17.5 µM
NC(COc1ccccc1[N+](=O)[O-])COc1ccccc1[N+](=O)[O-]  IC50 (parasite growth; L929, TULAHUEN; intracellular, amastigote): 18 µM
Cc1cc2[nH]c(C(=O)Nc3ccccc3C)c(CN3CCOCC3)c2s1  IC50 (parasite growth, imaging; NIH3T3, TULAHUEN; intracellular, amastigote): > 73 µM
O=C([C@@H](c1ccc(Cl)cc1)c1cccnc1)N1CCN(c2ccc(C(F)(F)F)cc2)CC1  IC50 (parasite growth, resazurin; 48 h, epimastigote): 4.53 µM
NC(COc1cccc(Cl)c1)COc1cccc(Cl)c1  IC50 (parasite growth; L929, TULAHUEN; intracellular, amastigote): 13 µM
NNc1nnc(NN)c2ccccc12  IC50 (parasite growth; 5 days, epimastigote): > 25 µM
CC(=O)OC(CF)Cn1c([N+](=O)[O-])cnc1C (stereo not drawn)  IC50 (parasite growth; 24 h, trypomastigote): 1750 µM
C#CCO[C@H]1C[C@H]2[C@@H](C)C[C@H]3OC(=O)C(=C)[C@H]3C[C@]2(C)[C@H]1OCC#C  IC50 (parasite growth, thymidine uptake; epimastigote): 3.72 µM
O=C1CNC(=S)N1  IC50 (parasite growth; LLC-MK2; 48 h, intracellular, amastigote): 73.1 µg/mL
CS(=O)(=O)C(CCl)Cn1cncc1[N+](=O)[O-] (stereo not drawn)  IC50 (parasite growth; 24 h, trypomastigote): 903 µM
COc1ccc(Nc2c(C#N)cnc3ccc(Cl)cc23)cc1  IC50 (growth; cardiomyocytes, Y, amastigote; 72 h, with: heme 30 µM): 6.3 ± 2.5 µM
N#C/C=C/C(=O)Oc1cccc(F)c1  IC50 (parasite growth, resazurin; mouse Macrophage; 24 h, intracellular, amastigote): 128 µM
CC(C)C[C@@H]1NC(=S)NC1=O  IC50 (parasite growth; LLC-MK2; 48 h, intracellular, amastigote): 34.1 µg/mL
C=C1C(=O)O[C@@H]2C[C@H](C)[C@@H]3C[C@H](O[Si](C)(C)C)[C@H](O[Si](C)(C)C)[C@@]3(C)C[C@H]12  IC50 (parasite growth, thymidine uptake; epimastigote): 13.2 µM
NC(COc1ccccc1Cl)COc1ccccc1Cl  IC50 (parasite growth; L929, TULAHUEN; intracellular, amastigote): 12 µM
CC(=O)OC(CCl)Cn1cncc1[N+](=O)[O-] (stereo not drawn)  IC50 (parasite growth; 24 h, trypomastigote): > 2000 µM
C=C1C(=O)O[C@@H]2C[C@H](C)[C@@H]3C[C@H](O[Si](c4ccccc4)(c4ccccc4)C(C)(C)C)[C@H](O)[C@@]3(C)C[C@H]12  IC50 (parasite growth, thymidine uptake; epimastigote): 46.8 µM
Cc1ccccc1OCC(N)COc1ccccc1C  IC50 (parasite growth; L929, TULAHUEN; intracellular, amastigote): 10 µM
